Assay results collected from several papers.
Every numbered part comes from another study and shows a few of its results, in no order. Substitutions count along the parent as printed.

Study 1 — technique: protein-binding microarray; form: double-stranded DNA, one strand shown; matrix: in vitro; concentration: 940 nM top; notes: 60-bp whole probe; together with: salmon DNA 0.4 mg/ml; reference: random background probes; direction: higher = stronger binding; measurement: fitted relative affinity; shared flanks, not repeated: GCCTAGCAC … GTCTTGATTCGCTTGACGCTGCTG
Target: Interferon regulatory factor 5, full length, phosphomimetic (IRF5, Homo sapiens, UniProt Q13568-2, residues 1-514, S451D/S453D/S456D/S462D)
Oligonucleotide = TCATTGTTGTTTTTTGGACTGTGCTAG; result = 1.01 z-score
Oligonucleotide = GACGGTATCTGACTGGGGACGTGCTAG; result = 0.119 z-score
Oligonucleotide = TTAGATATCGTGTATCGATTAGTGCTA; result = 0.643 z-score
Oligonucleotide = TTAGGAGTGGGGTATCGGTTAGTGCTA; result = 2.98 z-score
Oligonucleotide = TTAGGTTTCGGTATCCGTTAGTGCTAG; result = 15.6 z-score
Oligonucleotide = TTAGATTTCGGATATCGATTAGTGCTA; result = 0.907 z-score
Oligonucleotide = TTAGGTATCCTACTACTTTAGTGCTAG; result = -0.0732 z-score
Oligonucleotide = TCAAGGTTTTCTCTGGTACTGTGCTAG; result = 0.473 z-score
Oligonucleotide = TTTGGTATCGACTATCGGTTAGTGCTA; result = 9.27 z-score
Oligonucleotide = GACGGACCGGGTCTCGGGACGTGCTAG; result = 0.283 z-score
Oligonucleotide = TGAAGAATGCCTTTAATAAGGTGCTAG; result = -0.392 z-score
Oligonucleotide = TTAGGTTTCGGTATCGGTGAGTGCTAG; result = 15.4 z-score
Oligonucleotide = TTGGATTTCAGTATCGATTAGTGCTAG; result = 5.77 z-score
Oligonucleotide = TTAGGTTTCGTTCTCGGTTAGTGCTAG; result = 10.8 z-score
Oligonucleotide = TCACATATACACTGTGTAACTGTGCTA; result = 0.122 z-score
Oligonucleotide = TTAGGTATCTTACTGCTTTAGTGCTAG; result = 0.372 z-score
Oligonucleotide = TCAGCATTCCCTTTCTCACTGTGCTAG; result = 1.31 z-score
Oligonucleotide = GACGGTTTCATTCTCCTGACGTGCTAG; result = 5.52 z-score
Oligonucleotide = TCAGTTTACATTTTCCAACTGTGCTAG; result = 0.807 z-score
Oligonucleotide = TTAGGTTTCCTTATCCTTGAGTGCTAG; result = 1.69 z-score

Study 2 — target: CCNF, cyclin fold, Cln2 fusion (human); technique: yeast growth competition, sequencing; matrix: yeast; notes: strong parent motif; reference: not given; direction: higher = stronger binding; measurement: normalised enrichment score
Starting sequence: E2F1 docking peptide (human); PPVKRRLDFETDH; partner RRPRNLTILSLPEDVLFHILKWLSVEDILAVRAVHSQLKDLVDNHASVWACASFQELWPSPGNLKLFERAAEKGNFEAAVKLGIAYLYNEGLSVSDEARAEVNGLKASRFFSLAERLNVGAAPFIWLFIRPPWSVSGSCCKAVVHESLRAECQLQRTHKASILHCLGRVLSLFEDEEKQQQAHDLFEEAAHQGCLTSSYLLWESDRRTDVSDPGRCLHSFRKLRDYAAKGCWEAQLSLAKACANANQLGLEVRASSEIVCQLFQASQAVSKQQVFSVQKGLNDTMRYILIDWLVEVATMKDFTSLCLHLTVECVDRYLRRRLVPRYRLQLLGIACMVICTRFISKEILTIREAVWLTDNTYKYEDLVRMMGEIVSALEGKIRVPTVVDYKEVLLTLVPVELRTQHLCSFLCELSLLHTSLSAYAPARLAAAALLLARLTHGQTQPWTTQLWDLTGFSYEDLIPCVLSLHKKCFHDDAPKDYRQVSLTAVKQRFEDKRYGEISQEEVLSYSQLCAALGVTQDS
Substitution = L7G; result = -0.321
Substitution = R5P; result = -0.501
Substitution = E10L; result = 8.18
Substitution = L7Y; result = 0.153
Substitution = D12H; result = 7.81
Substitution = P2N; result = 7.83
Substitution = K4F; result = 5.96
Substitution = P2Y; result = 7.99
Substitution = P2I; result = 7.81
Substitution = L7M; result = 1.22
Substitution = R5A; result = 0.81
Substitution = D12V; result = 8
Substitution = D8K; result = 7.85

Study 3 — technique: DHFR PCA, deep sequencing; matrix: yeast; together with: (+)-ABA 1.4 µM; reference: wild-type fitted maximum; direction: higher = stronger binding; measurement: relative binding score
Target: ABI1, truncated, D143A, DHFR fusion (Arabidopsis thaliana)
Notes: methotrexate growth selection, single substitutions
Starting sequence: PYL1, truncated, DHFR fusion (Arabidopsis thaliana); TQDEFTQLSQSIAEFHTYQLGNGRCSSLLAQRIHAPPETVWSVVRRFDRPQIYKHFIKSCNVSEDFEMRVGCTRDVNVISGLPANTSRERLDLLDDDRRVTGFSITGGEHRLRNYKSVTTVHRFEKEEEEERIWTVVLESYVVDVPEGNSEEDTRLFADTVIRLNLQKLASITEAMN
Substitution = T135L; result = -1.38%
Substitution = S26R; result = 0.36%
Substitution = H122Q; result = -5.2%
Substitution = S171L; result = 40.3%
Substitution = Q19W; result = 15.9%
Substitution = I33V; result = 35%
Substitution = S11H; result = 52.9%
Substitution = W134G; result = 55.4%
Substitution = G81S; result = 14.8%
Substitution = Q31I; result = -13.8%
Substitution = A35Y; result = -23.5%
Substitution = S87I; result = 31.9%

Study 4 — technique: RNA Bind-n-Seq; form: RNA; matrix: in vitro; concentration: not given; reference: input RNA pool; direction: higher = stronger binding; measurement: bound/input enrichment
Target: RING finger protein unkempt homolog, zinc fingers 1-6, GST-SBP tag (UNK, Homo sapiens, UniProt Q9C0B0, residues 30-357)
Notes: RNA with constant flanks, human and mouse sites, ends assumed
Shared flanks, not repeated: GGGAGUUCUACAGUCCGACGAUC … CAACAGAGGAUUGAGCAUCA
Residues (chain): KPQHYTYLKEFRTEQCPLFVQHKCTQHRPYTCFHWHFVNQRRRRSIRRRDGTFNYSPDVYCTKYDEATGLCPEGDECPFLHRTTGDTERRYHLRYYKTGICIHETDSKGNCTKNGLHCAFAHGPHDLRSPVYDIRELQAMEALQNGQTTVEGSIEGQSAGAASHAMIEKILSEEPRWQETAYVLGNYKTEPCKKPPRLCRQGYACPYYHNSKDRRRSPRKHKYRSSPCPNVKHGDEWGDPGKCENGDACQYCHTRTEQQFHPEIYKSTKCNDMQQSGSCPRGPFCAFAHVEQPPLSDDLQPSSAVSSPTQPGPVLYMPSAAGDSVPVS
Oligonucleotide = AGGUAUCAUUGCCCAAUGCCCAAGAUCUUUUAUGUUCAGUUAACUGUAGGAAAUAAUGAAUUCUUUGGUGAAGGGAAGACUCGACAAGCUGCCAGACACAAUGCUGCGAUGAAAGCGCUU; result = 0.312 ratio
Oligonucleotide = UUGCAGGGAAUGGGCUACAUACCAUCUGCCAGCAUGACUCGGCUCGCCCGAUCACGAACCCACUCAACCUCGAGUAGCCUCGGCUCUGGAGAAAGUCCCUUCAGCCGGUCUGUCACCAGC; result = 0.0644 ratio
Oligonucleotide = UGGCUUAAUCAAAUCAUGCCUAAGAAAGACCCUGUGAAAAUUGUCCGAUGCCAUGAACACAUAGAAAUCCUUACAGUAAAUGGAGAAUUACUGUUUUUUAGACAAAGAGAAGGGCCUUUU; result = 0.942 ratio
Oligonucleotide = AGCCAGUCUGUCUGUGAUUAUUUCUUUGAAGCUCAAGAGAAAGCUGCUGAUGUUGAAAAUGUACCACCUGUCAUUUCAACACCUCACCACUACCUCAUCAGUAUCUACCGGGAUAAGCUC; result = 0.0965 ratio
Oligonucleotide = UAAAGGGAAAAGGCUAAAGAUCCACCCGCGGUUGCAUUUUCUUCUCUGUUAUCACUCUGCUACCUAGACUGUGAGAGGCUUUGCCUUCAGUCAGAUUACAGAGAGCAGGGUCUGACAUUG; result = 0.0788 ratio
Oligonucleotide = UCACCUGUUCAAGAUAUUGAUACCCCAGAGGUUGAUUUAUACCAAUUACAAGUAAAUACACUUAGGAGAUACAAAAGACACUUCAAGCUACCAACCAGACCAGGACUUAAUAAAGCACAA; result = 0.445 ratio
Oligonucleotide = GGAUACCUUCAGUCGAAGUUUUUUUAGCCCUCACUGAGCUACUUCCAAGUUUGGAAGUACUUAGUGACCUUGGUGAGUUUCUGUCCCCAAUCCCUUAACCCCUCAUCAAUGCUGCUAGUU; result = 0.387 ratio
Oligonucleotide = ACAGUAAAAAGAACAGAAACAGAAAAAAAGCCACCACCUAUUAAGGAUAGCAAAUCUUUAACAGCUGAGCCUCAAAAGGCUGUCCUUCCCACAAAACUGGAGAAAUCGCCCAAACCAGAA; result = 0.338 ratio
Oligonucleotide = UUACUACUUCAGGCUGUCAAUUCUCAUUGUUUCCCAGCAUUCCUUGCUAUUCCACCUACACAGUUUAAACUUGUUUUGGAUUCCAUCAUUUGGGCUUUCAAACAUACUAUGAGGAAUGUC; result = 0.138 ratio
Oligonucleotide = AUUUAUAGAGGAGGUUCUAUCAAUGUGCCGACUUACUUUGUGUUUUAUGUUCUGAGAACGAUUACCAGCCAUCUCAAAUUCUGUGGUUGUCAAAGCUCCCCUGGGGUUGUUGCUGGUUGG; result = 0.285 ratio
Oligonucleotide = UCCCAGAGAUAAGUUCACCAAGAUGUCCAGUGACAGGCAAAGGUCGGAUGAUGAGAGCCCUAGCACCAGCAGUGGCAGUUCAGAUGCAGAUCAGCGAGACCCUGCCGCUCCAGAGCCCGA; result = 0.122 ratio

Study 5 — technique: RNAcompete; form: RNA; matrix: in vitro; concentration: 20 nM; notes: 7-mer, probes averaged, single round; reference: mean of 7-mers; direction: higher = stronger binding; measurement: 7-mer Z-score
Target: PABPC1L2, full length, GST fusion (mouse, UniProt A0ABA7IW68)
Construct (chain): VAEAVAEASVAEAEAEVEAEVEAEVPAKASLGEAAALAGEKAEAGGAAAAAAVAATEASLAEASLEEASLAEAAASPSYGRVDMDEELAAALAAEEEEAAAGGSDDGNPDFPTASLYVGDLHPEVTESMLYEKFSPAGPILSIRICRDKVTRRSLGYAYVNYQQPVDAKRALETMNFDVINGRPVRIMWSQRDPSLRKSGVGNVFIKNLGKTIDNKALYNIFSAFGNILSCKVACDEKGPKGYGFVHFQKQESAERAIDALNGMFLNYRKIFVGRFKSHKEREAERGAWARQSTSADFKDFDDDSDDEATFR
Oligonucleotide = GGCCUCG; result = -0.224
Oligonucleotide = AUAAUCG; result = -0.0591
Oligonucleotide = AAAGUUA; result = 1.39
Oligonucleotide = CUAUUUC; result = -0.344
Oligonucleotide = GGGUAAC; result = 0.151
Oligonucleotide = AUUUAGU; result = 0.0787
Oligonucleotide = UCGUUUG; result = -0.597
Oligonucleotide = UAACGCG; result = -0.18
Oligonucleotide = UACAAAU; result = 1.25
Oligonucleotide = UCACGUA; result = -0.231
Oligonucleotide = UUACUUG; result = -0.0319
Oligonucleotide = ACAGUGG; result = 0.227
Oligonucleotide = AAAUACG; result = 1.98
Oligonucleotide = UUCAGCC; result = -0.371
Oligonucleotide = ACGGAUC; result = 0.0986
Oligonucleotide = CGGAGCG; result = 0.0968

Further values, each from its own experiment
Substance = PhoQ, residues 284 288 289 292 302 303 QWGLFV; target = PhoP, residues 12 14 15 18 19 GQALL (Escherichia coli, UniProt P23836); assay = Sort-seq, item: YFP reporter; test system = E. coli; conditions = PhoQ-PhoP variant library, together with: 10 µM Mg2+; how to read = reference: high Mg2+ state, higher = stronger signaling; measurement = fold induction; result = 3.96

Some of these lines once more (study 4):
Oligonucleotide = UAAAGGGAAAAGGCUAAAGAUCCACCCGCGGUUGCAUUUUCUUCUCUGUUAUCACUCUGCUACCUAGACUGUGAGAGGCUUUGCCUUCAGUCAGAUUACAGAGAGCAGGGUCUGACAUUG; result = 0.0788 ratio
Oligonucleotide = UUACUACUUCAGGCUGUCAAUUCUCAUUGUUUCCCAGCAUUCCUUGCUAUUCCACCUACACAGUUUAAACUUGUUUUGGAUUCCAUCAUUUGGGCUUUCAAACAUACUAUGAGGAAUGUC; result = 0.138 ratio
Oligonucleotide = AGCCAGUCUGUCUGUGAUUAUUUCUUUGAAGCUCAAGAGAAAGCUGCUGAUGUUGAAAAUGUACCACCUGUCAUUUCAACACCUCACCACUACCUCAUCAGUAUCUACCGGGAUAAGCUC; result = 0.0965 ratio
Oligonucleotide = AUUUAUAGAGGAGGUUCUAUCAAUGUGCCGACUUACUUUGUGUUUUAUGUUCUGAGAACGAUUACCAGCCAUCUCAAAUUCUGUGGUUGUCAAAGCUCCCCUGGGGUUGUUGCUGGUUGG; result = 0.285 ratio
Oligonucleotide = UGGCUUAAUCAAAUCAUGCCUAAGAAAGACCCUGUGAAAAUUGUCCGAUGCCAUGAACACAUAGAAAUCCUUACAGUAAAUGGAGAAUUACUGUUUUUUAGACAAAGAGAAGGGCCUUUU; result = 0.942 ratio
Oligonucleotide = UUGCAGGGAAUGGGCUACAUACCAUCUGCCAGCAUGACUCGGCUCGCCCGAUCACGAACCCACUCAACCUCGAGUAGCCUCGGCUCUGGAGAAAGUCCCUUCAGCCGGUCUGUCACCAGC; result = 0.0644 ratio
